Experimental data gathered from unrelated publications.
Every numbered part comes from another study and shows a few of its results, in no order. Positions count from the first letter of the parent shown.

Study 1
Target: RNA binding protein fox-1 homolog 2, RRM domain, GST-SBP tag (RBFOX2, Homo sapiens, UniProt O43251-10, residues 100-194)
Technique: RNA Bind-n-Seq
Molecule type: RNA
Matrix: in vitro
Tested at: 365 nM
Notes: natural RNA segment, single round, ends assumed
Reference: no-protein control
Direction: higher = stronger binding
Constant ends, left off below: GGGAGUUCUACAGUCCGACGAUC … UGGAAUUCUCGGGUGCCAA
Construct (chain): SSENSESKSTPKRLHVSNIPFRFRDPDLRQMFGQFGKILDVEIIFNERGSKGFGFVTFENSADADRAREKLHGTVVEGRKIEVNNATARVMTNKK
Sequence	RBNS enrichment (R)
AGAGGAAAAAAAAGCAACCUUCAAACUAAUUCUCCAUGGGGGCUCUCCAUGUUACCCUCCACUCCUUGGCCCAAACCUCUGAUGGAGAUAGACAUUGUUGGAGAAGUGGG	0.752
UCAUCAUGGAUACUCAAUUUGUUUUUUCUUAUAGAGAAAAUGAGUAUAUAAGACAAUAUACAAGAAGAAAUAUCAGUGAGUUUUAAAUCAGAACAAGUUACCUGUCACAU	0.404
AGGGUCACAUACAUCCAACUUCACCACUUGGCUGCUUGAGAUUGGUUCUGCUCUUUUCUUCAUUUCUUUCCAGAACAACUCUUUCCCACCCCAACACCACUGCCACCACC	0.7
GGACAGCAAUGUGAGCAGGCAGUUGAACAGGAAGAGGACAUUUUCUUUGUGGCUUUGGACCUGGACAGGAAGGUCCCACGGACCUUAUGUGAUGCGGGAGGCUCACAAAC	0.629
CACACACACGCACAGGGGAAUAAAAUAAGAAAAUCAUUUUCCUCACCAUAGACUUGAUCCCAUCCUUACAACCCAUCCUUCUAACUUGAUGUGUAUAAAAUAUGCAAACA	0.527
CCUAGACAACACUUAAACUCAUAUGAAACAAAAAUUAAAAUACGUAUUACAAGUACUUGGAUUGUUCCUUAGUCAUUAAAUAGGAUAUAAAUUAGGUUGAGAAGGGGGUA	0.455
AUUGUGACCAGUCACGUUCUAUCACCAGGCACUGUCUUGUCUUUGCCCUUGCCUUUUCUGUAACUCACCAUUUAUUGUAUUUACAAAUCUAGUAAGGGUUUUGAUCACAC	0.237
AACUAAUGGUUUUAACCUCCUUAACCACCAGCAUCCCUCCUCUCCCCAAGGUGAAGUGGAGGGUGCUGUGGUGAGCUGGCCACUCCAGAGCUGCAGUGCCACUGGAGGAG	0.314

Study 2
Target: CCNE2, cyclin fold, Cln2 fusion (human)
Technique: yeast growth competition, sequencing
Matrix: yeast
Notes: weak parent motif
Reference: not given
Direction: higher = stronger binding
Starting sequence: CDC42EP1 docking peptide (human); SLVVGKLSFDSSP; partner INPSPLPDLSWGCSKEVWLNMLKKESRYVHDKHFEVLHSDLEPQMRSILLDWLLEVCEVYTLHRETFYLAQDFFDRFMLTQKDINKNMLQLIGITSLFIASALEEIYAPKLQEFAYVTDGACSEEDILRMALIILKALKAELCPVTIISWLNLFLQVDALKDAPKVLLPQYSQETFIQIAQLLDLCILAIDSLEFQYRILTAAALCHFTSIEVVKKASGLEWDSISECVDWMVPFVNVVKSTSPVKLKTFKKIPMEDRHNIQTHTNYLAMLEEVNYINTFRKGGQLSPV
Variant	normalised enrichment score
F9A	-0.356
L7A	-0.258
S1A	0.14

Study 3
Target: Histone acetyltransferase KAT6A, winged helix 2, GST fusion (KAT6A, Homo sapiens, UniProt Q92794, residues 85-181)
Technique: protein binding microarray
Molecule type: double-stranded DNA, one strand shown
Matrix: in vitro
Tested at: not given
Notes: 8-mer, flanks averaged, mean of 2 arrays, mostly near background
Reference: not given
Direction: higher = stronger binding
Construct (chain): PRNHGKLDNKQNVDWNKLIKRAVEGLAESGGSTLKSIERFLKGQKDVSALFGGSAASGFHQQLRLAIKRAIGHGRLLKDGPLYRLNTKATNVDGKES
Sequence	E-score
AGGGTCAA	0.102
GTAGACAC	0.0578
TAGGGTGA	-0.0575
CTCCACGA	-0.0322
AGGGATAA	0.0651
GGATCGGA	-0.0511

Mixed results
Molecule	target	assay	system	conditions	scale	measurement	result
PhoQ, residues 284 288 289 292 302 303 SSCLAV	PhoP, residues 12 14 15 18 19 AGCRL (Escherichia coli, UniProt P23836)	Sort-seq, item: YFP reporter	E. coli	PhoQ-PhoP variant library, with: 10 µM Mg2+	reference: high Mg2+ state, higher = stronger signaling	fold induction	8.63

Repeated from above (study 1):
Sequence	RBNS enrichment (R)
CACACACACGCACAGGGGAAUAAAAUAAGAAAAUCAUUUUCCUCACCAUAGACUUGAUCCCAUCCUUACAACCCAUCCUUCUAACUUGAUGUGUAUAAAAUAUGCAAACA	0.527
CCUAGACAACACUUAAACUCAUAUGAAACAAAAAUUAAAAUACGUAUUACAAGUACUUGGAUUGUUCCUUAGUCAUUAAAUAGGAUAUAAAUUAGGUUGAGAAGGGGGUA	0.455
